Measurements of several laboratories.
Compare with care: the assays were run in different laboratories. ± gives the spread as reported.
USP5: Ubiquitin carboxyl-terminal hydrolase 5 (USP5, Homo sapiens, UniProt P45974)
CCKBR: Gastrin/cholecystokinin type B receptor (CCKBR, Homo sapiens, UniProt P32239)
PTGS2: Prostaglandin G/H synthase 2 (PTGS2, Homo sapiens, UniProt P35354)

Compound | target or system | assay | system | conditions | endpoint | result
O=C(c1ccccn1)N1CCc2ccccc2C1 | USP5 | enzyme activity, inhibitor |  | 17 µM | inhibition | 59%
CN(C)C/C=C/C(=O)Nc1ccc2nc(NCCCCCN(C)C)nc(NCCCCCCN(C)C)c2c1 | PRMT3 (Homo sapiens, UniProt O60678) | enzyme activity, inhibitor, radiometric |  | 50 µM | inhibition | 92%
O=C(CN1CCCCC1)Nc1ccc(C2CCCCC2)cc1 |  |  | mouse liver microsomes | 1 µM | hepatic clearance | 84 mL/min/kg
O=C1c2sc(-c3ccc(N4CCC(F)C4)nc3F)nc2CCN1c1cccnc1 (stereo not drawn) | CCKBR | ligand displacement, radioligand |  | 1 µM | inhibition | -2%
CC=C(C)C(=O)OC1CC2C(C=C(C)C3C(OC(C)=O)CC(=O)C13C)OC(=O)C2C (stereo not drawn) | PTGS2 | enzyme activity, inhibitor |  | 0.49 µg/mL | inhibition | 0%
C[Si](C)(C)C[C@H](CN)CC(=O)O | CCKBR | cell-free assay, inhibitor |  | 250 µM | inhibition | 1%
CCSc1nnc2c(n1)OC(C(=O)c1ccccc1)Nc1ccccc1-2 (stereo not drawn) | USP5 | enzyme activity, inhibitor |  | 17 µM | inhibition | 11%
CC(=O)C12NC(C)(C)CC1(C)C(=O)C1=C2c2c(c3c4n2C(C)(C)CC2=C4C4(CC(C)(C)NC(C)(C4)C2=O)CC3(C)C)C(=O)C(C)(C)N1 (single isomer, unassigned; (+)) | KCNQ2 (Homo sapiens, UniProt O43526) | potassium current, whole-cell patch clamp | HEK293T | 40 µM | inhibition | 0 ± 0.01%
CN1CCC(c2ccc(-c3ccc([C@H]4[C@@H](F)[C@@H](F)C[C@@H](F)[C@H]4F)cc3)cn2)CC1 |  | liver microsome stability | mouse liver microsomes | 1 µM | hepatic clearance | 78 mL/min/kg
C/C=C/C(=O)Nc1ccc2nc(NCCCCCN(C)C)nc(NCCCCCCN(C)C)c2c1 | PRMT6 (Homo sapiens, UniProt Q96LA8) | enzyme activity, inhibitor, radiometric |  | 50 µM | inhibition | 82%
N#CC(=CNc1ccc(C(=O)O)cc1)c1nc2ccccc2[nH]1 | USP5 | enzyme activity, inhibitor |  | 17 µM | inhibition | 2%
CO[C@@H]1OC[C@@H](O)[C@H](O)[C@H]1O | PTGS2 | enzyme activity, inhibitor |  | 0.49 µg/mL | inhibition | 16.4%
